Measurements gathered from unrelated publications.
Each line is one published result; not all experiments were run side by side. “And” joins repeats or separate records; there may be more than shown. ± gives the spread as reported.

SMILES | test | system | conditions | scale | measurement | result
COc1cc2c3c(n(CCCN4CCOCC4)c(=O)c2cc1OC)-c1cc2c(cc1C3=O)OCO2 |  | Fischer 344 rats, male | intravenous bolus, 24 mg/m^2 |  | volume of distribution | 287 L/m²
Cc1nc(-c2ccc(OCC(C)C)c(C#N)c2)sc1C(=O)O | refers to: neutrophils, haemoglobin | healthy Chinese subjects | oral, 40 mg, fed |  | haematological reaction incidence | 5%
CCN1/C(=C/C(C)=O)Sc2ccc(F)cc21 |  | cynomolgus monkey | oral, 100 mg/kg, 2 h post-dose |  | QRS duration | 36 ± 1 ms
CC(C)C[C@H](NC(=O)[C@@H](Cc1c[nH]c2ccccc12)NC(=O)[C@H](Cc1ccc(O)cc1)NC(=O)[C@H](CO)NC(=O)[C@H](Cc1c[nH]c2ccccc12)NC(=O)[C@H](Cc1c[nH]cn1)NC(=O)[C@@H]1CCC(=O)N1)C(=O)N[C@@H](CCCNC(=N)N)C(=O)N1CCC[C@H]1C(=O)NCC(N)=O |  | Chinese CPP children, overall | intramuscular, 22.5 mg, 12 months, day 1, month 6 |  | patients, drug-related TEAEs | 19.7%
Oc1ccc(Br)c2cccnc12 |  | oil/water | pH 7.4 |  | partition coefficient | 107
CO[C@H]1CC[C@H](N2C(=O)CNc3ncc(-c4ccc(C(C)(C)O)nc4)nc32)CC1 |  | patients, plasma | oral, 45 mg, day 15, geometric mean |  | AUC(0-t) | 1350 ng·h/mL
Cc1cc(Nc2ccc(S(F)(F)(F)(F)F)cc2)n2nc(C(C)(F)F)nc2n1 |  | Plasmodium vivax malaria patients | oral, 800 mg |  | adverse event Vomiting | 0%
CCn1c(=O)c(-c2cc(NC(=O)Nc3ccccc3)c(F)cc2Br)cc2cnc(NC)cc21 | refers to: investigations | human, severe hepatic impairment | oral, 50 mg single dose |  | participants with grade ≥ 3 TEAE | 25%
Cc1nc2cccc(OCC(C)(C)C(=O)NC(C)C)c2c(N)c1C(=O)O |  | male Swiss albino CD-1 mouse, bone marrow | oral, 500 mg/kg, 24 h |  | PCE/NCE ratio | 0.8
O=c1oc2c(O)c(O)cc3c(=O)oc4c(O)c(O)cc1c4c23 |  | rat, plasma | oral, 1000 mg/kg extract |  | apparent oral clearance | 20.5 ± 5.96 L/h
CC(C)[C@H](C(=O)Nc1ccc(C(=O)NO)cc1)c1ccccc1 |  | whole blood | 10.0 ng/mL, 1 h, 4 °C, stability on ice |  | accuracy | 107%
COc1ncc(-c2nc3c(n2C(C)C)[C@H](c2ccc(Cl)cc2)N(c2cc(Cl)cn(C)c2=O)C3=O)c(OC)n1 | LC-MS/MS | human, plasma | oral, 45 mg, cycle 2 day 1, low-dose arm |  | Cmax | 393 ng/mL
CNC(=O)c1cc(Oc2ccc(NC(=O)Nc3cc(C(C)(C)C)nn3-c3ccc4ncccc4c3)c(F)c2)ccn1 | refers to: worst grade 3 | human | oral, dose not given, cycles 1 and 2, High Cmax subgroup |  | patients with any AE of special interest | 39%
FC(F)(F)c1ccc(CNc2ccc(Cc3c[nH]c4ncc(Cl)cc34)cn2)cn1 | refers to: face oedema | human, advanced solid tumours, non-TGCT cohort | oral, 1000 mg/day, any grade |  | treatment-related adverse events | 4%
O=C(O)c1ccccc1 | binding, MIDAS equilibrium dialysis LC-MS | A2AR-BRIL thermostabilized | concentration not given | baseline: no-protein control | log2 fold change | -0.104
CCc1c(-c2ccccc2)c(-c2ccccc2)nn1-c1ccccc1-c1cccc(OCC(=O)O)c1 |  | female Sprague-Dawley rat, uterus | oral, 10 mg/kg, 4 h |  | concentration | 1830 ng/g
O=C(Nc1nc2cccc(-c3ccc(CN4CCS(=O)(=O)CC4)cc3)n2n1)C1CC1 | refers to: infections and infestations | human rheumatoid arthritis patients | oral, 75 mg once daily, 4 weeks, regardless of relatedness |  | treatment-emergent adverse events | 0%
NC(N)=O | binding, MIDAS equilibrium dialysis LC-MS | A2AR-BRIL thermostabilized | concentration not given | baseline: no-protein control | log2 fold change | -0.0838
CNCCOC12CC3(C)CC(C)(CC(Cn4ncc(-c5ccc(N6CCc7cccc(C(=O)Nc8nc9ccccc9s8)c7C6)nc5C(=O)O)c4C)(C3)C1)C2 |  | anaesthetised male beagle dogs | intravenous bolus, 0.03 mg/kg, 30 min | baseline: baseline | cardiac output change | -8%
c1ccc2c(c1)ccc1c3ccccc3ccc21 |  | polyethylene-water partitioning | PAH compilation | baseline: maximum over minimum K | literature range factor | 3

SMILES | test | system | conditions | scale | measurement | result
CC(C)(C(=O)N1CCOc2c(C#N)cncc2C1)C(F)F |  | human, both sexes | oral, 30 mg single dose |  | subjects with keratitis TEAE | 16.7%
O=C(O)C1=CO[C@@H](O[C@@H]2O[C@H](CO)[C@@H](O)[C@H](O)[C@H]2O)[C@@H]2C(CO)=CC[C@H]12 | three freeze-thaw cycles | rat plasma | 1000 ng/mL, -70 °C freeze |  | accuracy | 92.4%
NCCONC(=O)[C@@H]1CC[C@@H]2CN1C(=O)N2OS(=O)(=O)O |  | human male, urine | intravenous infusion, 2 g single dose |  | amount excreted in urine (0-24 h) | 1530 mg
CCCC(CCC)C(=O)Oc1cccc(C(O)CCN)c1.O=CO (stereo not shown) |  | Abca4-/-Rdh8-/- mice, photic damage | oral, 20 mg/kg, 7 days, flash intensity 0.005 |  | ERG, scotopic, rod b-wave | 52.3 µV and 55.8 µV and 62.2 µV and 49.3 µV and 72.7 µV and 80.5 µV
NC(=O)N1c2ccccc2C=Cc2ccccc21 | refers to: back pain | human male | oral, dose not given, CTCAE on-treatment AEs |  | adverse events incidence | 7%
Cc1ccc(C)c(OCCCC(C)(C)C(=O)O)c1 |  | human, plasma | oral, dose not given, day 15 predose, median |  | trough plasma concentration | 1690 ng/mL
COc1ccc2c(=O)n(C)c(-c3ccccc3)nc2c1 |  | male Sprague-Dawley rat, small intestine | oral, 30 mg/kg, 2 h |  | tissue concentration | 50900 ng/g
O=C(O)CCC(=O)O.[2H]C([2H])([2H])Oc1cc(C)c2[nH]ccc2c1CN1CC[C@@H](C2CC2)C[C@H]1c1ccc(C(=O)O)cc1 | multiple ascending dose | healthy Chinese subjects | 125 mg twice daily |  | subjects with papular urticaria TEAE | 0%
CC(C)n1c(Nc2cccnc2)nc2cnc(Nc3ccc(N4CCN(C)CC4)cc3)nc21 | refers to: platelet count decreased | healthy male subjects | oral, 100 mg, study, with: itraconazole |  | subjects with adverse event | 7.1%
COc1cccc(OC)c1-c1cc(C(=O)NC2(C(=O)O)C3CC4CC(C3)CC2C4)nn1-c1ccc(C(=O)N(C)CCCN(C)CCCN(C)C(=O)CN2CCN(CC(=O)[O-])CCN(CC(=O)[O-])CCN(CC(=O)[O-])CC2)cc1C(C)C.[177Lu+3] (stereo not shown) |  | mouse, HT-29 xenograft | 4 h post injection, biodistribution | baseline: tumour over heart uptake | tumour-to-heart ratio | 6.7
CC(C(=O)NCC(=O)NCC(CNC(=O)CNC(=O)C(C)N1CCN(CC(=O)[O-])CCN(CC(=O)[O-])CCN(CC(=O)[O-])CC1)(CNC(=O)CNC(=O)C(C)N1CCN(CC(=O)[O-])CCN(CC(=O)[O-])CCN(CC(=O)[O-])CC1)CNC(=O)CNC(=O)C(C)N1CCN(CC(=O)[O-])CCN(CC(=O)[O-])CCN(CC(=O)[O-])CC1)N1CCN(CC(=O)[O-])CCN(CC(=O)[O-])CCN(CC(=O)[O-])CC1.[Gd+3].[Gd+3].[Gd+3].[Gd+3] (stereo not shown) |  | cynomolgus monkey | day 5 | baseline: kidney cortex over skin | Gd concentration ratio | 100
NS(=O)(=O)c1cc(C(=O)O)c(NCc2ccco2)cc1Cl | refers to: haematoma | healthy men | oral, 8 days, treatment-emergent, crossover trial |  | subjects with adverse event | 0%
CNC(=O)c1cc(Oc2ccc(NC(=O)Nc3ccc(Cl)c(C(F)(F)F)c3)c(F)c2)cc[n+]1[O-] | short-term stability | mouse plasma | 750 ng/mL, 8 h, room temperature |  | accuracy | 101%
C[C@@H](Oc1ccc(S(C)(=O)=O)cc1C(=O)N1C[C@@H]2C[C@]2(c2cc(C(F)(F)F)on2)C1)C(F)(F)F |  | young humans, plasma | oral, 25 mg once daily, multiple dose, geometric mean |  | Vz/F at steady state | 317 L
CN(C(=O)n1cnc(-c2cccnc2)c1)[C@H]1CC[C@H](O)CC1 |  | rat, cortex | oral, 10 mg/kg single dose, 4 h |  | tissue concentration | 31.6 ± 7 ng/g
COc1ccc([C@@H](O)c2cc(-c3ncnc4cc(N5CCOCC5)ccc34)c(F)cc2Cl)nn1 | mixed model | healthy volunteers, plasma | oral, 100 mg, fasted tablet reference arm |  | AUC(0-t) geometric LS mean | 1040 ng·h/mL
CCc1cc(C(=O)NC)c2nccc(N3CCc4c(cc(Cn5ccnc5)cc4-c4cn(C)nc4C(F)(F)F)C3=O)c2c1 |  | Sprague Dawley rats | oral, 100 mg/kg twice daily, 7 days |  | serum ALT activity | 57.3 ± 2.87 U/L
Cc1c(-c2ccc(N3CCc4cccc(C(=O)Nc5nc6ccccc6s5)c4C3)nc2C(=O)O)cnn1CC12CC3(C)CC(C)(C1)CC(OCCNCC[C@H](O)CO)(C3)C2 |  | anaesthetised male beagle dogs | intravenous infusion, 0.3 mg/kg/min, 15 min | baseline: vehicle | systemic vascular resistance change | 12%
C[Si]1(C)O[Si](C)(C)O[Si](C)(C)O[Si](C)(C)O[Si](C)(C)O[Si](C)(C)O1 | IVIVE from S9 | rainbow trout (Oncorhynchus mykiss) |  |  | whole-body biotransformation rate constant | 0.008 day⁻¹ and 0.004 day⁻¹ and 0.007 day⁻¹
C=CC(=O)Nc1cccc(-n2nc3c(=O)[nH]nc(N)c3c2-c2oc3ccc(C)cc3c2C)c1 |  | BALB/c nude mouse, whole blood | 1 µM, 0.5 h, 37 °C |  | remaining compound | 78.4%

Some of these lines once more:
SMILES | test | system | conditions | scale | measurement | result
Cc1ccc(C)c(OCCCC(C)(C)C(=O)O)c1 |  | human, plasma | oral, dose not given, day 15 predose, median |  | trough plasma concentration | 1690 ng/mL
COc1ccc2c(=O)n(C)c(-c3ccccc3)nc2c1 |  | male Sprague-Dawley rat, small intestine | oral, 30 mg/kg, 2 h |  | tissue concentration | 50900 ng/g
O=C(O)CCC(=O)O.[2H]C([2H])([2H])Oc1cc(C)c2[nH]ccc2c1CN1CC[C@@H](C2CC2)C[C@H]1c1ccc(C(=O)O)cc1 | multiple ascending dose | healthy Chinese subjects | 125 mg twice daily |  | subjects with papular urticaria TEAE | 0%
